Published values from different studies.
Numbered parts are unrelated; each lists some results of a single study.

Sample 1 — technique: RNA Bind-n-Seq; form: RNA; medium: in vitro; tested at: 200 nM; notes: whole 134-nt RNA, ends assumed; with: 150 mM LiCl; baseline: input library; direction: higher = stronger binding; each molecule: 7-deaza-guanosine replaces G
Target: Fragile X messenger ribonucleoprotein 1, C-terminal low-complexity region (Fmr1, Mus musculus, UniProt P35922)
| Strand | log2 enrichment |
| --- | --- |
| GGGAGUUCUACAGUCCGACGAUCGUCCUGUGCUACACAUCGUAUGUACCGAAUCGGGUUUUUGGGGUUUUUGGUUUUUGGGGAAAGUAUUAUGUUACGCCGUUCGGAUCUGCAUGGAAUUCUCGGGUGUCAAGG | -1.61 |
| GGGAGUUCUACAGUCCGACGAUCUCAAGUCCUGUGCUACACAUCGUAUGUACCGAAUCGGAGGAAAAAAAGGAAAGGAAAGUAUUAUGUUACGCCGUUCGGAUCUGCACUUCCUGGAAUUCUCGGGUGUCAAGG | -0.882 |
| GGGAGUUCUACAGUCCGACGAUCACCAUGCAGGUGGGCAUCUUUGGGAAGUGGGGCAAGGGGGGGAUAGGGAGGGGGGUAACACUUUGGGGACAGGUGGUCCCAGGUCGUUUCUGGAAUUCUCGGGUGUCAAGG | 1.49 |
| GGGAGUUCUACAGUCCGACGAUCGAUUCCCUCCACAUGCUGCACGCGCAUCUCGCCCCCAGGGGCACUGCCUGGAAGAUUCAGGAGCCUGGGCGGCCUUCGCUUACUCUCACCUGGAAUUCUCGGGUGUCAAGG | 2.19 |
| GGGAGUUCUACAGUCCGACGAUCUGCCUCCCUGCUGCAGAAAUACACCGACAACAGCGAGAAGCCAUCCGGGAAGAGACUGUGCAAAACCAAACACUUGAUCCCUCAGGAGUCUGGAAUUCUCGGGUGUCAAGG | -0.881 |
| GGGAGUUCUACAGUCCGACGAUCGCAGGAAGUAAAAACAAAAGGAAAUGCUUCGGAUAGUGGCAGGGGUGGGGGUUGCUAAGGAAAGGGUGGGAUGGGAGUGGGUAAAGAGUUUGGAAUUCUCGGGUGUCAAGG | 1.57 |
| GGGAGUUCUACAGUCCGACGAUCGUCCUGUGCUACACAUCGUAUGUACCGAAUCGGGUUUUUGGGAAAAAAAGGGUUUGGGAAAGUAUUAUGUUACGCCGUUCGGAUCUGCACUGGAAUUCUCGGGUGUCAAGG | -2.88 |
| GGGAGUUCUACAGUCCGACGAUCCCUCAAGUCCUGUGCUACACAUCGUAUGUACCGAAUCGGGGCGGGGCGGCGGAAAGUAUUAUGUUACGCCGUUCGGAUCUGCACUUCCAGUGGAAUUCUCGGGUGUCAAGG | -1.63 |

Sample 2 — technique: RNA Bind-n-Seq; form: RNA; medium: in vitro; tested at: 365 nM; baseline: no-protein control; direction: higher = stronger binding
Target: RNA binding protein fox-1 homolog 2, RRM domain, GST-SBP tag (RBFOX2, Homo sapiens, UniProt O43251-10, residues 100-194)
Notes: natural RNA segment, single round, ends assumed
Target sequence (chain): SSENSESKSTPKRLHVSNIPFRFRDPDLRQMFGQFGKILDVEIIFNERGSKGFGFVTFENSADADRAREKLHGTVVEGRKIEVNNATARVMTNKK
| Strand | RBNS enrichment (R) |
| --- | --- |
| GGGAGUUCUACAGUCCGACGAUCCAGCACCAAGACUCACGGAAAGACUAGACUGUGUGGGUAUCUGAAACAAAGCCCACAGGAUACGCCCGAGACCCUCAAUUCAAGGAGAGCUCCAAGGAUGUGUUGGACUCUGGAAUUCUCGGGUGCCAA | 0.945 |
| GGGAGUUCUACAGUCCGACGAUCUCAGGGGCCACUGGACUAUUUGCAAGGUGACAGGGACUGGAGCCAUGGCUCAGAGGUGAUUCGGGCAGCCAGGGACAGGAGCCACCCUCCCCAGGCCCAACUCUGCUAGCUGGAAUUCUCGGGUGCCAA | 0.938 |
| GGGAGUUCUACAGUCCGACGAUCUCCGGAUUUUCUUUUGGGGGUUAGAAGGUCAGGUGUGGAGACUGCUCGCCAGUCUCUGUGAGCCUAGGCCCUGAGCUGGGGAGGUGGGGAAGAUUCGGGCAUGUGAGUGCUGGAAUUCUCGGGUGCCAA | 0.559 |
| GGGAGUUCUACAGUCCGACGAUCGGCCCCCAAGUUCCCUAGCAAGCUGCCAAACCAAAACGGGCACCACCAGCUCAGCUGAGGCAUCCCAGCCAGGCAGGACCCUUGAGGGCCGCUGUAUCCAUGGUGAUGGGUGGAAUUCUCGGGUGCCAA | 0.258 |
| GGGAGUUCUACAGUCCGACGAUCAUGGCUGAGAGCUGCCGUUCCUCUUUCACGAUCCCAGCCCCAUUUCAGUGUCUGGGGCUCUGGUAGAUGUGUUGAGGGCAAAGUAGAGGACAAGCUGUCUUUCCCAGUCAUGGAAUUCUCGGGUGCCAA | 0.827 |
| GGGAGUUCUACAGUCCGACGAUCCUGCAUGUCAGUUUCUCUCCUUCCACAGUUAUGUUGGCUUCCAUGCUUUUUCAGAUUGUGUGGUAGCCAUAGGACCUGACCCAGUUUGUGCCUCCUGGGAUCCUCAUCCCUGGAAUUCUCGGGUGCCAA | 0.816 |
| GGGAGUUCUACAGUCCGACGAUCUCUGUUAAGGAGUUUUUCCCAAGAAGAAAAGUAUUUAAAAGAAAUACCAGUGAGUGCCUUAAAGUUGGAGAAGUAACUGCCCAUGCCCAGAAAUAAGGAUGCCAGUGCCCUGGAAUUCUCGGGUGCCAA | 2.01 |
| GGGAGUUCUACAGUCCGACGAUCUCACCUCUUAAAAACAUUGUUUCCACUUUAAAAGUAAACACUUAAUAAAUUUUUGGAAGAUCUCUGAUUUUUAUGUGUUCAUUUAUGAACAUUAAAUACGAAAAUAUUAUUGGAAUUCUCGGGUGCCAA | 0.513 |

Sample 3 — technique: RNAcompete; form: RNA; medium: in vitro; tested at: 20 nM; notes: 7-mer, probes averaged, single round; baseline: mean of 7-mers; direction: higher = stronger binding
Target: PABPC1L2, full length, GST fusion (mouse, UniProt A0ABA7IW68)
Target sequence (chain): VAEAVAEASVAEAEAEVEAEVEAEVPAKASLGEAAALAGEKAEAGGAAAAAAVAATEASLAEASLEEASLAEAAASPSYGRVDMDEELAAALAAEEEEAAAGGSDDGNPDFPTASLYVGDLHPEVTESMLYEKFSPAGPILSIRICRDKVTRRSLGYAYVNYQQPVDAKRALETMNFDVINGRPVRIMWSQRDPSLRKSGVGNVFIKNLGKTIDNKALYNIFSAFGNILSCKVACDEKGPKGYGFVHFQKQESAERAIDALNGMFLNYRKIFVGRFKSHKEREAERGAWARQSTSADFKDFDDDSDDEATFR
| Strand | 7-mer Z-score |
| --- | --- |
| UAAGUAC | -0.115 |
| GCGUGGA | 0.43 |
| UACGGGU | 0.157 |
| ACCUUCA | -0.233 |
| CAAAUUC | 0.0279 |
| GUUUAAA | 0.32 |
| CGAAAUC | -0.0808 |
| ACAGGGU | 0.167 |
| CACUCGA | -0.204 |
| GCAGGAA | 0.316 |
| GCUAUCA | -0.0283 |
| AAGAGAA | 0.729 |
| ACUCGGA | 0.0352 |
| ACACUUA | 0.0279 |
| CAACGCU | -0.0935 |
| UAAACUU | 0.476 |
| AUCCGUC | -0.362 |
| CAUCUUU | -0.139 |
| GUUGGAC | -0.0971 |
| AGACUGU | -0.335 |
| GGAAUCU | -0.222 |
| GGAGUGG | 0.202 |
| CUGGGUC | -0.219 |
| CGUAUCA | -0.162 |
| CCAAUUU | -0.135 |

Sample 4 — technique: protein-binding microarray; form: double-stranded DNA, one strand shown; medium: in vitro; tested at: 2200 nM top; notes: 60-bp whole probe; with: salmon DNA 0.4 mg/ml; baseline: random background probes; direction: higher = stronger binding; shared flanks, not repeated: GCCTAGCAC … GTCTTGATTCGCTTGACGCTGCTG
Target: Interferon regulatory factor 7, full length, phosphomimetic (IRF7, Homo sapiens, UniProt Q92985, residues 1-503, S471D/S472D/S475D/S476D/S477D/S483D/S484D/S487D)
Construct (chain): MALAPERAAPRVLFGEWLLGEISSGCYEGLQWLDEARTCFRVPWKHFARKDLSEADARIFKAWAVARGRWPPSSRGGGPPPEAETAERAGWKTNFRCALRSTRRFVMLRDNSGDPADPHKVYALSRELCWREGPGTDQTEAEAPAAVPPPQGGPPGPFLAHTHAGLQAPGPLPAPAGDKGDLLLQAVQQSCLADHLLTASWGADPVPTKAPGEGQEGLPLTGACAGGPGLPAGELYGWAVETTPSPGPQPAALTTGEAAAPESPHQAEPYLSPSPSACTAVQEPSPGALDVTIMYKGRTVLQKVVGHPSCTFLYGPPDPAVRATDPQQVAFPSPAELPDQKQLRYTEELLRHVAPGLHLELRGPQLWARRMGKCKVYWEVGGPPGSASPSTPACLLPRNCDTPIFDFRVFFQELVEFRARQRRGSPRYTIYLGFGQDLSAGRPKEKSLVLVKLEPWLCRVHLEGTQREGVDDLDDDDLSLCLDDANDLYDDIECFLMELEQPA
| Strand | fitted relative affinity [z-score] |
| --- | --- |
| GACCAACTGGGGTTTCGAGACGTGCTA | 0.664 |
| TCATTTATATGCTATGTAACTGTGCTA | 1.05 |
| TCAACTCCCCAACTCGCACTGTGCTAG | 1.01 |
| AGAGGCGGGAGGGGGCGGGGGTGCTAG | 0.952 |
| TTAGATATCGACTTTCGGTTAGTGCTA | 6.22 |
| GACGATTTCAGTTTCGAGGCGTGCTAG | 4.8 |
| GACGGTATCAACTATCGGGACGTGCTA | 0.0066 |
| TTTGATATCAGTTTCGATTAGTGCTAG | 6.19 |
| TATGTTCACTATTTAAGGCCGTGCTAG | 0.894 |
| TTAGAACTGGGGTATCGATCAGTGCTA | -0.134 |
| ACCTAATTCACTATTACCAAGTGCTAG | 1.17 |
| CACGGACTGGGGACTGGGGACGTGCTA | -0.542 |
| TCATATATATGTGTATAACTGTGCTAG | 0.877 |
| TTAGGTATCGGGTATCGGGTAGTGCTA | 0.248 |
| TTAGGTATCCTACTGCTTAAGTGCTAG | 0.401 |
| TTAGGTCTCGGTATCAGTTAGTGCTAG | 0.6 |
| AGACATTCTTTCAGTTGGAAGTGCTAG | 0.967 |
| TAAGGTATCGGTCTCGGTTAGTGCTAG | 0.793 |
| TGTTGTCTTAGATTCCTTTGGTGCTAG | 1.28 |

A few entries again (sample 1):
| Strand | log2 enrichment |
| --- | --- |
| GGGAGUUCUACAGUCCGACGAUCGUCCUGUGCUACACAUCGUAUGUACCGAAUCGGGUUUUUGGGGUUUUUGGUUUUUGGGGAAAGUAUUAUGUUACGCCGUUCGGAUCUGCAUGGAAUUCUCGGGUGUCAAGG | -1.61 |
| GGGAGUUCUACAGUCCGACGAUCUCAAGUCCUGUGCUACACAUCGUAUGUACCGAAUCGGAGGAAAAAAAGGAAAGGAAAGUAUUAUGUUACGCCGUUCGGAUCUGCACUUCCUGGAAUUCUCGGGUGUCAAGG | -0.882 |
| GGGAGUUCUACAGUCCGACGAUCACCAUGCAGGUGGGCAUCUUUGGGAAGUGGGGCAAGGGGGGGAUAGGGAGGGGGGUAACACUUUGGGGACAGGUGGUCCCAGGUCGUUUCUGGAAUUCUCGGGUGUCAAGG | 1.49 |
| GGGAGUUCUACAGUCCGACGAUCGAUUCCCUCCACAUGCUGCACGCGCAUCUCGCCCCCAGGGGCACUGCCUGGAAGAUUCAGGAGCCUGGGCGGCCUUCGCUUACUCUCACCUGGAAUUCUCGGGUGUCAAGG | 2.19 |
| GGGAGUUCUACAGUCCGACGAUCUGCCUCCCUGCUGCAGAAAUACACCGACAACAGCGAGAAGCCAUCCGGGAAGAGACUGUGCAAAACCAAACACUUGAUCCCUCAGGAGUCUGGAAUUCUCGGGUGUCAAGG | -0.881 |
| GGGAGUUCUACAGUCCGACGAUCGCAGGAAGUAAAAACAAAAGGAAAUGCUUCGGAUAGUGGCAGGGGUGGGGGUUGCUAAGGAAAGGGUGGGAUGGGAGUGGGUAAAGAGUUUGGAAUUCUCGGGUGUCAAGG | 1.57 |
| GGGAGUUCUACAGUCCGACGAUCGUCCUGUGCUACACAUCGUAUGUACCGAAUCGGGUUUUUGGGAAAAAAAGGGUUUGGGAAAGUAUUAUGUUACGCCGUUCGGAUCUGCACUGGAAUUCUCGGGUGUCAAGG | -2.88 |
| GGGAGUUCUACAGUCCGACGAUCCCUCAAGUCCUGUGCUACACAUCGUAUGUACCGAAUCGGGGCGGGGCGGCGGAAAGUAUUAUGUUACGCCGUUCGGAUCUGCACUUCCAGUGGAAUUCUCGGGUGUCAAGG | -1.63 |
